# Assay results from different studies.
# Parts stem from different laboratories: compare values within a part only.

# Study 1 — method: protein-binding microarray; form: double-stranded DNA, one strand shown; matrix: in vitro; tested at: not given; direction: higher = stronger binding
# Target: Transcription factor SOX-2, HMG box (SOX2, Homo sapiens, UniProt P48431, residues 19-118)
# UniProt P48431, sequence (19-118, looked up): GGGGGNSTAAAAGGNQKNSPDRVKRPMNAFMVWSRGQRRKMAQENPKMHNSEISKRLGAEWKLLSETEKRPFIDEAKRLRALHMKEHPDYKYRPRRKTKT
# Setting: k-mer, scored over probes, only values ≥0.25
Oligonucleotide,E-score
ATTCAAG,0.261
AATTTTC,0.256
CATTATC,0.359
AGATTGA,0.259
CATTATA,0.356
AATTCGT,0.266
AATAGAC,0.294
GATACAA,0.275
ATTCACC,0.377

# Study 2 — method: RNA Bind-n-Seq; form: RNA; matrix: in vitro; tested at: 365 nM; relative to: no-protein control; direction: higher = stronger binding
# Target: RNA binding protein fox-1 homolog 2, RRM domain, GST-SBP tag (RBFOX2, Homo sapiens, UniProt O43251-10, residues 100-194)
# Setting: natural RNA segment, single round, ends assumed
# Residues (chain): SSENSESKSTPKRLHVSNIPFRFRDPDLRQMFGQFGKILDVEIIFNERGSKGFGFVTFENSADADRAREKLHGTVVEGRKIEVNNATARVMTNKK
Oligonucleotide,RBNS enrichment (R)
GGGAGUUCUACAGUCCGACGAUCAAGAAAGGAGGGGGAAAAUCCAGCGUGCCCCAUCUCCUACCCACCCCCUCUUUGUAUUCUCUUUGUAUUUUUCCCCUUCUUAAAAUUUCUUUUUCUGCAAUGAAGACAGAUGGAAUUCUCGGGUGCCAA,0.982
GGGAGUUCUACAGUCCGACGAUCUUGUCUUUUGGAGAAAAAAAACUGUACUGCUUGUUCAAGAGGGCUGUGAUUAAAAUCUUUAAGCAUUUGUUCCUGCCAAGGUAGUUUUCUUGCAUUUUGCUCUCCAUUCAUGGAAUUCUCGGGUGCCAA,0.715
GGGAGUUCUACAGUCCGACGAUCGAAGAGGGGAGACCUCUUCUACGACCCCUCCCACUCGGGCCCGAGUAGGGCCUGGGACCCCGAAUGUGAAUAUAACGUAGCAUCUUCGCUGGCUAUGGCCGUGCACUCCCUGGAAUUCUCGGGUGCCAA,1.87
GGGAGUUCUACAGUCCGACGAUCAAAAAAAAGUGAACUAAUAUAGCAUCAGGUAAGCAUUGUCACAGAGCCAAGCCUGGUAGGAUUUGUCUUUAAAAGUAGCAAUAGUAAGAGAGGCAAGUCAAGGGAAAGAGUGGAAUUCUCGGGUGCCAA,0.506
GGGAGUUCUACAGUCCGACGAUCCCCCCACUAGAAACCCACUUCCAGAGUCAUGUUUGCAUCACAGUCAAAAGAGAAGUCUGUGCACCUCAAGUGAGGUCCCAGGAGCUUUCCUCGCCCUCCAAACCAAGCAUUGGAAUUCUCGGGUGCCAA,0.516
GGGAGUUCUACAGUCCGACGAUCGCAGCCGCAGACGGUCUGGACACCGCCGCAGGGGUGGGGUGAGGCGUCCCCCACCCUGCGGGACAGUGAACUGUGCAUAAGUCAGCGGAGGGCGACGACCCUCGCCGCGGUGGAAUUCUCGGGUGCCAA,0.319
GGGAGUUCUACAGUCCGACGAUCUAAUCCUGACAUACAGAACAAAGAAUGCAGUAACAUUAGCCCUGCCAGGUCACGUGUAGGACGUGCUUAUCCAGUUUUUUCCCCCUUUACCUGCAUAGUUGCUACAUACAUGGAAUUCUCGGGUGCCAA,0.52
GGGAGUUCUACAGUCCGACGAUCGAAGGUCCCCCAACUCAGUUUUUUGCUUCUGCCAGGGAGCCUAAGUACCCACCCCGUCCACCUCCCCCAUGAAGGCAGCUGAGCUUUCAGAGCUGGGUUCAAAAAGAAAAUGGAAUUCUCGGGUGCCAA,0.399
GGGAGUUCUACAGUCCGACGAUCGAGACACCAGAGGUCUGCUGCAGAGCCCCACCAAGAACCAAGAUGAAGAAAGCCCCUGAGAGAUGCACAUGGAGCCUGGAUCACUUCAUCCUCACACCUGUUCCCUCCAGUGGAAUUCUCGGGUGCCAA,0.902
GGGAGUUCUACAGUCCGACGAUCUAUGGUUUGUCUUAUGCUGCAUAGACUAUUCACCUCCUAACUUGAAGGUCUAAUCAUAAGACAAUUGUUUUUUUGUGCAUAGUUUUCAUCUAAAAUUAAGUUUACCAAAGUGGAAUUCUCGGGUGCCAA,0.79
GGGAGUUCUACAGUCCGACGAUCCAAAAAAAAAAAAACCCAUUUGCAGAGGCAGUUUUGCCAACACAAGGGCUCUUUCAAGCCGACUUUCACAAAGAGAGCCGGACUUGUUAGUUGGCUUCUGUCUCUUUAGAUGGAAUUCUCGGGUGCCAA,0.577
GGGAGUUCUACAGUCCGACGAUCCUUCACAGACGAGAGACUGUUGUCUUUGGAUUUUUCCCUCCGACUUUACUCUGUGAUUUCAGGUUCUAACAACAUGGCCUGUCGUUUUAUUUUAAAAGUUCCUGCUGUUCUGGAAUUCUCGGGUGCCAA,0.39

# Study 3 — method: competition protein-binding microarray; form: double-stranded DNA, one strand shown; matrix: in vitro; tested at: 2 µM; added: Cbf1 competitor, 0.05 µM; direction: higher = stronger binding
# Target: Phosphate system positive regulatory protein PHO4, full length, GST-tagged (PHO4, Saccharomyces cerevisiae, UniProt P07270, residues 1-312)
# Setting: whole 60-bp probe, lowest competitor level
# Residues (chain): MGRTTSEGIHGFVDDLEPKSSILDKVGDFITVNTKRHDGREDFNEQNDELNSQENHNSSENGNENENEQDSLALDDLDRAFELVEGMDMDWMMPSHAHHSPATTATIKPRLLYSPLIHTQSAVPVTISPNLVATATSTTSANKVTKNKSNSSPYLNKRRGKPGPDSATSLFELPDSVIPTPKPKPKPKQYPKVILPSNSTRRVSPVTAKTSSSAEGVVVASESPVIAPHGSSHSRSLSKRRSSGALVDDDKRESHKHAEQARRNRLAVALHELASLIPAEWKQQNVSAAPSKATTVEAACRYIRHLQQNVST
Oligonucleotide,fluorescence intensity [a.u.]
TTGACGATTATGATGAACGTGACTCGCAAGAAATATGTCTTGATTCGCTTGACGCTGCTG,8420
CTTTCCCGATCTTGTCCCGTGGGTGTAGCACATTTGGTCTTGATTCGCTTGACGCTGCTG,9200
CATACCCAACCTTTTCACGTGGGCTAAGATATTTGTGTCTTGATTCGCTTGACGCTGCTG,17100
TCAACTTGGGCAGCACACATGCAAAACATCACCCAAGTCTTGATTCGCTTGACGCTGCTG,7200
CTAACGAAGGTTTGTGCAGTGGGTGACAAGCCAAGTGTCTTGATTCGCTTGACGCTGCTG,5010
ATTACTAAAGCCTCTCATGTGTTCTACGCCCATTGTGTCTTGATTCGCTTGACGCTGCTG,6990
TGAAAGGTTCTTTGACACATGTAAAGCTCCCTAAGTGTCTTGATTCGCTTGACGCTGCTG,6520
CTCCAACATGCTTTGCACGGGGGAGGGACAGTAGCTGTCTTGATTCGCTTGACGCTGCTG,9100
AAAGCGGTAATTTGGCCGGTGGGTGCAGATATCTATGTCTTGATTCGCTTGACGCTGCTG,4300
CTTCTGTAAATTTTTCACGTGCTCTGACGCGCCCCGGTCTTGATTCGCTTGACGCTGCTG,13300
AAAAGTGGGAGCTCATTCGTGATGGGGAAGCAGAGAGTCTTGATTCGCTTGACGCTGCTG,4130
AAAGCGGTAATTTGCCGAGTGGGTGCAGATATCTATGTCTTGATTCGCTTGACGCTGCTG,4350
TCTAGTAGGTGCGCCAGCGTGCGATGATGTGATGAGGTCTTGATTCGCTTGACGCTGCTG,9830
AAATTACTAAGTTGCAACGTGGGTGACGCCGTATGAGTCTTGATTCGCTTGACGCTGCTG,14400
AAAGCGGTAATTTGCCGTGTGGGTGCAGATATCTATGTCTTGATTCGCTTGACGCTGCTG,5290
TGCGCAACAACTTGAAATGTGGGTGTATGTCTAGAAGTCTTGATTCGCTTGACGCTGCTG,6400

# Study 4 — method: RNA Bind-n-Seq; form: RNA; matrix: in vitro; tested at: not given; setting: RNA with constant flanks, ends assumed; relative to: input RNA pool; direction: higher = stronger binding
# Target: RING finger protein unkempt homolog, zinc fingers 1-6, GST-SBP tag (UNK, Homo sapiens, UniProt Q9C0B0, residues 30-357)
# Construct (chain): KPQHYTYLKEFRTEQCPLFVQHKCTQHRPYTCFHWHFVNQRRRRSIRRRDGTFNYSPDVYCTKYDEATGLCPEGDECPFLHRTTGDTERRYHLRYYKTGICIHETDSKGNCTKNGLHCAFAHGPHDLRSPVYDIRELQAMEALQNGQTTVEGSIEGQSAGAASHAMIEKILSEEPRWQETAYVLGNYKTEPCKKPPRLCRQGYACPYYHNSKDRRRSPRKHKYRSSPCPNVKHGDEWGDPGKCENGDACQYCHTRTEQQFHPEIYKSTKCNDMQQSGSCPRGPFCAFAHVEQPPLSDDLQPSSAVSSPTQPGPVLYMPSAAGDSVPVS
Oligonucleotide,bound/input enrichment [ratio]
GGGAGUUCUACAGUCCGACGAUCGAUGUUAGAGAUGUGGUUGGGCGGCCUAUAGAUCCAAGAGAAGGUCCUGGACGGCCUCCACCCGAUGGUAGGGAUCAUUUUGGAAGACCUCCUGUAGAUAUAAGAGAGAAUCUUGUGAGGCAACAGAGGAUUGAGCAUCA,4.23
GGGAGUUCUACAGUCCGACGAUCCACUGCAUUGCCACUGAGAACAGCUUCAAACAGACCAUAGCCAAGAUCAACUUCAAAGUUUCCGAUUCAGAAAUGGUGGCCGUUGUGACAGACAAGUGGUCCCCGUGGACAUGGGCUGGCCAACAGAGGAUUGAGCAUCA,0.0892
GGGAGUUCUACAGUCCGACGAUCUUUUAUGAACGACUGGCAGGCCAUGGCCCUAAACUAGGACCUGUCACCAGGAAGUAUCCUUCCGUUACCAGGUAUUUUACUUUCCCCUUUGGAGAAAUGGCCUUAUCCGCAGAGGAAGCCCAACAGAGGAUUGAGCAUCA,1.1
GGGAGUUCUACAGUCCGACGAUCUUGGAGCAGCCCGUGGUGGUGCAGAGCGUGGGCACGGAUGGACGUGUCUUCCAUUUCCCCGUGUUUCAACUGAAUACCACAGACCUGGACUGUAACGAGGGUGUCAAGAAUUUGGCCUGGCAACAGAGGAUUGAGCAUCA,0.0936
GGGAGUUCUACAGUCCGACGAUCGCAGAUUACAAUGGCAGAUUGGCGGCAGAAAUAGAUGAUAGAAAGCAACUCACUCGAAUGUCCGCAGAUUUUCUUCGUUGUCAAAAGGAAGCCCUUGCAGAGAAAGAGCAUAAAUUGGAACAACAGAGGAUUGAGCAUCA,0.744
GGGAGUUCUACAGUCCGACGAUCAGACCAUGAAUUAUGGAAUUUCCUAAAUGAAGCAUUCAGGAAUGGAAUGAGAGAAUGUCACACCGAAAAUAAAUGAUUUUUAAGUUAUGUCUAUUAAUUUGACUCUAGAUAUAUAUAUUUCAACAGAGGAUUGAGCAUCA,6.77

# Some of these lines once more (study 4):
Oligonucleotide,bound/input enrichment [ratio]
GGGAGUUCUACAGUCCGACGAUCGAUGUUAGAGAUGUGGUUGGGCGGCCUAUAGAUCCAAGAGAAGGUCCUGGACGGCCUCCACCCGAUGGUAGGGAUCAUUUUGGAAGACCUCCUGUAGAUAUAAGAGAGAAUCUUGUGAGGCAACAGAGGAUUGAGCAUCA,4.23
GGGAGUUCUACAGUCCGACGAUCCACUGCAUUGCCACUGAGAACAGCUUCAAACAGACCAUAGCCAAGAUCAACUUCAAAGUUUCCGAUUCAGAAAUGGUGGCCGUUGUGACAGACAAGUGGUCCCCGUGGACAUGGGCUGGCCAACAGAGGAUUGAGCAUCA,0.0892
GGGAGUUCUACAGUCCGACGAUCUUUUAUGAACGACUGGCAGGCCAUGGCCCUAAACUAGGACCUGUCACCAGGAAGUAUCCUUCCGUUACCAGGUAUUUUACUUUCCCCUUUGGAGAAAUGGCCUUAUCCGCAGAGGAAGCCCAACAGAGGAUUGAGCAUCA,1.1
